Assay results of several laboratories.
Parts stem from different laboratories: compare values within a part only. “And” joins repeats or separate records; there may be more than shown.
Sequence of UniProt P06870 (whole entry, looked up): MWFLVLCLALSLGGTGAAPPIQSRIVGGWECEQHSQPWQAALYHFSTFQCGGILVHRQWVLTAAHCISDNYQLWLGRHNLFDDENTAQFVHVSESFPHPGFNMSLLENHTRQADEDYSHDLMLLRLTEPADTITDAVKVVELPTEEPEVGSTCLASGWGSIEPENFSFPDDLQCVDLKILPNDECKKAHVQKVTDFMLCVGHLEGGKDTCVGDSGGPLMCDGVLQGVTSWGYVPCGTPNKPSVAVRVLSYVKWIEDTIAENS

Set 1
Organism: Sarcocystis neurona
Observed: parasite growth
Tested at: 10 µM
Notes: secondary screen
SMILES	inhibition
CNC1=Nc2ccc(Cl)cc2C(c2ccccc2)=[N+]([O-])C1	-20.6%
C[C@]12CC[C@H]3[C@@H](CCC4=CC(=O)CC[C@@]43C)[C@@H]1CC[C@@H]2O	2.3% and 9%
CC[C@]1(O)CC[C@H]2[C@@H]3CCC4=CCCC[C@@H]4[C@H]3CC[C@@]21C	-33.4%
CNC1CC(c2ccc(Cl)c(Cl)c2)c2ccccc21 (stereo not drawn)	-9.9%
COc1cc2c(cc1OC)[C@@]13CCN4CC5=CCO[C@H]6CC(=O)N2[C@H]1[C@H]6[C@H]5C[C@H]43	-21.4%
CCN(C(C)=O)c1cccc(-c2ccnc3c(C#N)cnn23)c1	-43.5%
CNC(=O)Oc1ccc2c(c1)[C@]1(C)CCN(C)[C@@H]1N2C.CNC(=O)Oc1ccc2c(c1)[C@]1(C)CCN(C)[C@@H]1N2C.O=S(=O)(O)O	-61%

Set 2
Target: Serine/threonine-protein kinase PknB (pknB, Mycobacterium tuberculosis, UniProt P9WI81)
Sequence of UniProt P9WI81 (whole entry, looked up): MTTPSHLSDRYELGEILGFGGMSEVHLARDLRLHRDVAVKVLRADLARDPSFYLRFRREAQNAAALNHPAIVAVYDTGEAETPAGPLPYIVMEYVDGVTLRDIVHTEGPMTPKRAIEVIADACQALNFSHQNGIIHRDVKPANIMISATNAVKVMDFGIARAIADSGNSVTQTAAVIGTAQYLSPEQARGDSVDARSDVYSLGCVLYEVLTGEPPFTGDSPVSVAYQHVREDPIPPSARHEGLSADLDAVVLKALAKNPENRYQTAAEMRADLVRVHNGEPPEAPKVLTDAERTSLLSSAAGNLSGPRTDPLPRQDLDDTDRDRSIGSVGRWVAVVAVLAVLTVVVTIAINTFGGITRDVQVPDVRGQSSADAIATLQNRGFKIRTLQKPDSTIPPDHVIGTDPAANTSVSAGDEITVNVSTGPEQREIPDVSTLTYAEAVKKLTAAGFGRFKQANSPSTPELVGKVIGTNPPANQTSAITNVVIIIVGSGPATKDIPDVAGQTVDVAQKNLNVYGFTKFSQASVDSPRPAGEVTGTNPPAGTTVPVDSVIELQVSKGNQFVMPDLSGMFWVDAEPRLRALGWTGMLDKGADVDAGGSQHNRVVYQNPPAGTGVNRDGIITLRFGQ
Observed: cell-free assay
Technique: competition with immobilised ligand
Tested at: 1 µM
Compound	remaining binding [%]
COc1ccc2c(c1)O[C@H](c1ccc(OC)c(OC)c1)C[C@@H]2NC(=O)C1(c2ccc3c(c2)OC(F)(F)O3)CC1	88
NS(=O)(=O)c1cc(NC(=O)C2(c3ccccc3Cl)CC2)ccc1Oc1cccc(Cl)c1	90
Cc1nc(Cc2cccc(C(F)(F)F)c2)sc1-c1ccc(C(N)=O)nc1	99

Set 3
Cell line: HEK-293T/ACE2
Tested at: 10 µM
Time: 16 h
Baseline: vehicle
Compound	viability
Cc1cc2nc3c(=O)[nH]c(=O)nc-3n(C[C@H](O)[C@H](O)[C@H](O)CO)c2cc1C	100%
N[C@@H](Cc1ccc(N(CCCl)CCCl)cc1)C(=O)O	88.8%
COc1ccccc1OCC(O)COC(N)=O (stereo not drawn)	99.3%
C[C@H]1COc2c(N3CCN(C)CC3)c(F)cc3c(=O)c(C(=O)O)cn1c23	102%
CC1(C)S[C@@H]2[C@H](NC(=O)Cc3ccccc3)C(=O)N2[C@H]1C(=O)O	98.2%
COc1ccc2nc(SCc3ncc(C)c(OC)c3C)[nH]c2c1	102%
CC1Cc2ccccc2N1NC(=O)c1ccc(Cl)c(S(N)(=O)=O)c1 (stereo not drawn)	102%
CN(C)C(=O)Oc1ccc[n+](C)c1	105%

Set 4
Cell line: HEK-293T-ACE2-TMPRSS2
Technique: cell count
Tested at: 10 µM
SMILES	viability [%]
CCSc1nc(CC(=O)N(C)Cc2nonc2C)cs1	68
Cc1cc2c(C(C)C)c(O)c(O)c(C=O)c2c(O)c1-c1c(C)cc2c(C(C)C)c(O)c(O)c(C=O)c2c1O	109
CCOC(=O)N1CCN(C2CCCN(C(=O)c3scc4c3CCCC4)C2)CC1 (stereo not drawn)	103
Clc1cc2c(c3ncccc13)OCN(C1CCCC1)C2	126
O=C(OCCc1ccccc1)c1sc2ccccc2c1Cl	121
CCc1ccccc1-c1ncnc2[nH]ccc12	67
O=C(NCCc1ccc(Cl)cc1)C(=O)c1ccc[nH]1	81
Cc1cc(OC(C)C(=O)Nc2ccccc2Br)nc(N2CCN(c3ccccc3)CC2)n1 (stereo not drawn)	93
c1ccc(Nc2nccc(-c3cccnc3)n2)cc1	77
CCOC(=O)c1cnc(S/C=C/C(=O)c2ccc(C)cc2)nc1N	73
Cc1occc1C(=O)N[C@@H]1CN(c2ncccn2)C[C@H]1CO	115
CC1CCCCN1Cc1c(O)ccc2cc(-c3nc4ccccc4s3)c(=O)oc12 (stereo not drawn)	89
CC(=O)c1ccc(NC(=O)CSc2nnc(-c3nc(-c4ccccc4)no3)n2C)cc1	107
CN(CC1CCCO1)C(=O)c1coc(COc2ccc3c(c2)OCO3)n1 (stereo not drawn)	86
Cc1nc(C(=O)N2C[C@@H](COCC3CC3)[C@H](c3ccncc3)C2)co1	109
CCC(NC(=O)Nc1cccc(C)c1C)c1c(-n2cccc2)sc2c1CCN(C)C2 (stereo not drawn)	108
CN(Cc1cnccn1)C(=O)c1ccc(CSc2ncccn2)o1	80
CCCCc1ccc(Nc2cc(C)nc(-n3nc(C)cc3C)n2)cc1	73
CC(C)(C)N1COc2c(cc(Cl)c3cccnc23)C1	71
COc1ccc(CNC(=O)C2(C)Cc3ccccc3C(=O)N2c2ccc(OC)cc2)cc1 (stereo not drawn)	86
CCOC(=O)N1CCN(C(=O)Cn2ncc(Cl)c(Cl)c2=O)CC1	65
C=CC(=O)N1CC(=Cc2ccc([N+](=O)[O-])cc2)C(=O)/C(=C/c2ccc([N+](=O)[O-])cc2)C1	149
O=C(Nc1ccc2c(c1)OCCO2)c1ccccc1-n1ncc(Cl)c(Cl)c1=O	71
Cc1sc2nc(CN3CCCC3)nc(Sc3nnnn3C3CCCC3)c2c1C	68
COCc1noc([C@@H]2CC(F)(F)CN2C(=O)c2cc(C)n[nH]2)n1	97

Set 5
Substance: meglumine antimoniate
Organism: Leishmania infantum chagasi
Technique: qPCR
Species: golden hamster chronic infection
Route: intraperitoneal
Dose: 50 mg/kg/day
Time: 10 days
measured	sample	threshold cycle
microglobulin mRNA	liver	19.3 cycles and 18.8 cycles and 19 cycles and 18 cycles and 18.9 cycles and 20 cycles
TGF-β mRNA	spleen	20.1 cycles and 24 cycles and 24.2 cycles and 20.6 cycles and 22.9 cycles
IFN-γ mRNA	liver	33 cycles and 32.9 cycles and 30.3 cycles and 31.8 cycles and 29.6 cycles and 30.4 cycles
TNF mRNA	spleen	26.8 cycles and 28 cycles and 28.4 cycles and 24 cycles and 24.9 cycles and 27.6 cycles

Mixed results
SMILES	tested on	test system	setting	quantity	result
CC(C)c1ccc(CN2CCN(CCO)CC2)cc1	–	human, microsomes or S9	2 µM, 0.5 h	remaining compound	64.9%
O=C1CCC(N2Cc3c(ccc4c3OCC43CCN(Cc4ccccc4)CC3)C2=O)C(=O)N1 (stereo not drawn)	–	Sprague Dawley rat, male, plasma	intravenous, 1.0 mg/kg	CL	21.7 mL/min/kg and 20.8 mL/min/kg
N=C(N)NN	A-375	–	100 µM, 60 h	viability	104%
CC(=O)N[C@@H](CC(C)C)C(=O)N[C@@H](CC(C)C)C(=O)N[C@H](C=O)CCCNC(=N)N	Kallikrein-1 (KLK1, Homo sapiens, UniProt P06870)	–	–	IC50	3.49 µM
